Published values gathered from unrelated publications.
A part holds a random share of what one study measured. Changes are numbered by the printed parent chain.

Block 1
Target: UDP-N-acetylglucosamine--peptide N-acetylglucosaminyltransferase 110 kDa subunit (OGT, Homo sapiens, UniProt O15294)
Chain of UniProt O15294 (whole entry, looked up): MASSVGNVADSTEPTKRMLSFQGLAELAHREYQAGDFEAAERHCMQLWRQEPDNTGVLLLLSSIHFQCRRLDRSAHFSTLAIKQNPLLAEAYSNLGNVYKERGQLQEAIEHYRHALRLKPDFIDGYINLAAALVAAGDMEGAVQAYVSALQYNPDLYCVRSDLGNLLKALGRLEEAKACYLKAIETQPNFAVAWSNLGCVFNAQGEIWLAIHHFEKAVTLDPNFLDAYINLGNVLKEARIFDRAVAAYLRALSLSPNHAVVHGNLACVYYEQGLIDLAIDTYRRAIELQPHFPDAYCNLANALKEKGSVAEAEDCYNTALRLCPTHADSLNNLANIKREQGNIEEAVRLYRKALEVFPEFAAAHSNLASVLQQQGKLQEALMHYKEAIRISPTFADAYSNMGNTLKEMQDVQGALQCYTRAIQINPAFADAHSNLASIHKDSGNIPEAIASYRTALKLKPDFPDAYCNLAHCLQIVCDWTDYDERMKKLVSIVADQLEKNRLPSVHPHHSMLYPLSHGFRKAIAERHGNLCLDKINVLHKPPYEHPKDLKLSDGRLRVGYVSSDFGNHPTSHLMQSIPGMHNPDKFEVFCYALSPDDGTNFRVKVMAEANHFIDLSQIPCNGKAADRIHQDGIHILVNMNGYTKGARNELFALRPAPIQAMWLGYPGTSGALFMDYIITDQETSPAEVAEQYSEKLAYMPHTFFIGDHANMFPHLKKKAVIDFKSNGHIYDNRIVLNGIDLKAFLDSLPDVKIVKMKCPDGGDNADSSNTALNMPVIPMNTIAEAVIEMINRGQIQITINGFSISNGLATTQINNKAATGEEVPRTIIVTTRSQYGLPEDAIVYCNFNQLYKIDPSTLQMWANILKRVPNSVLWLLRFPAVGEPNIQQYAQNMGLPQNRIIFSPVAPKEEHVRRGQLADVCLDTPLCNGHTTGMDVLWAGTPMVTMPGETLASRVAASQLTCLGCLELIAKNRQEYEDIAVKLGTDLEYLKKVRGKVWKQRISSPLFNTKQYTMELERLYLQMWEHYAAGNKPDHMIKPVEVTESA
Observed: binding
Technique: phage display NGS
Molecule type: peptide
Concentration: concentration not given
Relative to: input library
Sequence | enrichment fold change
TYHFPHTHNHVQQHH | 14.9
WTGIHHPWSVPHGRP | 7.39
GHDSYMPFYQISLFR | 8.37

Block 2
Target: CEP164, C-terminal peptide (human)
Technique: DHFR complementation, deep sequencing
Matrix: yeast
Setting: single substitutions, model-inferred values
Relative to: wild type
Direction: higher = weaker binding
Parent: PDZK1, PDZ domain 2 (human); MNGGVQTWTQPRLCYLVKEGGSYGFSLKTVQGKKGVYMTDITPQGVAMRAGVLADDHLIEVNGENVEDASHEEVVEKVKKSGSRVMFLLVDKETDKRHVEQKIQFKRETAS; partner HNRVKVYRF
Change | binding free energy change [kcal/mol]
V99L | -0.118
L27S | 0.469
E73P | 0.947
R49P | 1.06
G82C | 0.788
G45P | 1.19
N65Y | 0.336
V66A | 1.08

Block 3
Target: CCNA2, cyclin fold, Cln2 fusion (human)
Technique: yeast growth competition, sequencing
Matrix: yeast
Setting: strong parent motif
Relative to: not given
Direction: higher = stronger binding
Parent: viral docking peptide; YKVKRRLVFGADD; partner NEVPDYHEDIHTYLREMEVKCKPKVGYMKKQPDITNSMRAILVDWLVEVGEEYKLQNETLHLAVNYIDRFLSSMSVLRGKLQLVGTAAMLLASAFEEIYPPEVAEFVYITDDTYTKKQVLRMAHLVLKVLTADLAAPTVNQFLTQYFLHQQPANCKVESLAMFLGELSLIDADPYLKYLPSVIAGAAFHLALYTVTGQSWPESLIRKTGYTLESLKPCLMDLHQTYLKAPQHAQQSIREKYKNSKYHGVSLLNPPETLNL
Change | normalised enrichment score
YKVKTRLVFGADD [R5T] | 4.22
YKVKRGLVFGADD [R6G] | 3.52
YKVKRRLVIGADD [F9I] | 1.49
YKVKRRLVFCADD [G10C] | 6.04

Block 4
Target: Centromere-binding protein 1, full length, His-tagged (CBF1, Saccharomyces cerevisiae, UniProt P17106, residues 1-351)
Chain of UniProt P17106 (whole entry, looked up): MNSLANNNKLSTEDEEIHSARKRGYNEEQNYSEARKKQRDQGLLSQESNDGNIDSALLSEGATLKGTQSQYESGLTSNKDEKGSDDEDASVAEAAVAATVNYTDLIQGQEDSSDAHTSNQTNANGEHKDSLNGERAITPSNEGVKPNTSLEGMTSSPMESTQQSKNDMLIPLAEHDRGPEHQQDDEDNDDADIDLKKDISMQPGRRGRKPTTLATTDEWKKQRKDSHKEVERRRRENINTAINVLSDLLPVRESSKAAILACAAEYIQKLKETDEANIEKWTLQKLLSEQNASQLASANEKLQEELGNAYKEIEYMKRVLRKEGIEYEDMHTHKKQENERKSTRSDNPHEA
Technique: competition protein-binding microarray
Molecule type: double-stranded DNA, one strand shown
Matrix: in vitro
Concentration: 2 µM
Setting: whole 60-bp probe, lowest competitor level
Added: Pho4 competitor, 0.05 µM
Direction: higher = stronger binding
Constant ends, left off below: … GTCTTGATTCGCTTGACGCTGCTG
Oligonucleotide | fluorescence intensity [a.u.]
CTTCTGTAAATTTTTCACGTGAAATGACGCGCCCCG | 736
GGAAATCGAACATTTCACGTTCTGCAGAATTTAAAG | 98.3
GTCTTGTCTCATTGCGTTGTGGGTGTCCCCACTTCA | 98.4
CAATTGGGTATGAATCACACGCAATCAGCCCAATCA | 94.9
AATCTCCACTTTACCAATGTGACAGTCTAGACAAGC | 88.1
TGCGCAACAACTTGTCAAGTGGGTGTATGTCTAGAA | 67.9
AAAGCGGTAATTTTTCACGTGTTGTCAAATATCTAT | 1660
AAAGCGGTAATTTGACGAGTGGGTGCAGATATCTAT | 62.7

Repeated from above (block 4):
Oligonucleotide | fluorescence intensity [a.u.]
CTTCTGTAAATTTTTCACGTGAAATGACGCGCCCCG | 736
GGAAATCGAACATTTCACGTTCTGCAGAATTTAAAG | 98.3
